Experimental data from different studies.
A part holds a random share of what one study measured. Values joined by “and” are separate records of one study, mostly repeats; a detail may differ. ± gives the spread as reported.
UniProt Q99640, sequence (whole entry, looked up): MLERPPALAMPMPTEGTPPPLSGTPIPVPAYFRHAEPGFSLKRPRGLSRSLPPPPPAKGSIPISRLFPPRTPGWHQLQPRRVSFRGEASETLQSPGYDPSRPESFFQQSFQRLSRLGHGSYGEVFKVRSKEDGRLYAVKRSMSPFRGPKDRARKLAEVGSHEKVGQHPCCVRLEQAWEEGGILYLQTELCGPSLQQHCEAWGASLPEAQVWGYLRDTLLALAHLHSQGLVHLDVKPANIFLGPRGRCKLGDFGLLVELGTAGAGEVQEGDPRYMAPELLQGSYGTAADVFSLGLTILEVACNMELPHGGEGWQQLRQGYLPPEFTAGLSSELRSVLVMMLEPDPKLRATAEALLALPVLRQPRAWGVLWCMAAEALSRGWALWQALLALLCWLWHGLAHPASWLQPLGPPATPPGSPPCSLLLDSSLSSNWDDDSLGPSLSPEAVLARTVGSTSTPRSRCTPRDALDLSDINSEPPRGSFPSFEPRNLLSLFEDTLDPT

Series 1
Compound: C[C@@H]1CN(c2ccc(-c3cc(C(=O)NCCOCCOCCOCCOCCOCCOCCNC(=O)/C=C/c4[nH]cc(C(=O)N[C@@H](CC(N)=O)c5ccc(F)c(Cl)c5)c4-c4ccc(Cl)cc4F)ccc3F)cc2NC(=O)c2ccc(F)cc2C(F)(F)F)C[C@H](C)N1C
Observed: thermal unfolding
Technique: differential scanning fluorimetry
Tested at: 5.5 µM
Reading: higher = more unfolded
WDR5: WD repeat-containing protein 5 (WDR5, Homo sapiens, UniProt P61964)
DCAF1: DDB1- and CUL4-associated factor 1 (DCAF1, Homo sapiens, UniProt Q9Y4B6)
UniProt Q9Y4B6, sequence (whole entry, looked up): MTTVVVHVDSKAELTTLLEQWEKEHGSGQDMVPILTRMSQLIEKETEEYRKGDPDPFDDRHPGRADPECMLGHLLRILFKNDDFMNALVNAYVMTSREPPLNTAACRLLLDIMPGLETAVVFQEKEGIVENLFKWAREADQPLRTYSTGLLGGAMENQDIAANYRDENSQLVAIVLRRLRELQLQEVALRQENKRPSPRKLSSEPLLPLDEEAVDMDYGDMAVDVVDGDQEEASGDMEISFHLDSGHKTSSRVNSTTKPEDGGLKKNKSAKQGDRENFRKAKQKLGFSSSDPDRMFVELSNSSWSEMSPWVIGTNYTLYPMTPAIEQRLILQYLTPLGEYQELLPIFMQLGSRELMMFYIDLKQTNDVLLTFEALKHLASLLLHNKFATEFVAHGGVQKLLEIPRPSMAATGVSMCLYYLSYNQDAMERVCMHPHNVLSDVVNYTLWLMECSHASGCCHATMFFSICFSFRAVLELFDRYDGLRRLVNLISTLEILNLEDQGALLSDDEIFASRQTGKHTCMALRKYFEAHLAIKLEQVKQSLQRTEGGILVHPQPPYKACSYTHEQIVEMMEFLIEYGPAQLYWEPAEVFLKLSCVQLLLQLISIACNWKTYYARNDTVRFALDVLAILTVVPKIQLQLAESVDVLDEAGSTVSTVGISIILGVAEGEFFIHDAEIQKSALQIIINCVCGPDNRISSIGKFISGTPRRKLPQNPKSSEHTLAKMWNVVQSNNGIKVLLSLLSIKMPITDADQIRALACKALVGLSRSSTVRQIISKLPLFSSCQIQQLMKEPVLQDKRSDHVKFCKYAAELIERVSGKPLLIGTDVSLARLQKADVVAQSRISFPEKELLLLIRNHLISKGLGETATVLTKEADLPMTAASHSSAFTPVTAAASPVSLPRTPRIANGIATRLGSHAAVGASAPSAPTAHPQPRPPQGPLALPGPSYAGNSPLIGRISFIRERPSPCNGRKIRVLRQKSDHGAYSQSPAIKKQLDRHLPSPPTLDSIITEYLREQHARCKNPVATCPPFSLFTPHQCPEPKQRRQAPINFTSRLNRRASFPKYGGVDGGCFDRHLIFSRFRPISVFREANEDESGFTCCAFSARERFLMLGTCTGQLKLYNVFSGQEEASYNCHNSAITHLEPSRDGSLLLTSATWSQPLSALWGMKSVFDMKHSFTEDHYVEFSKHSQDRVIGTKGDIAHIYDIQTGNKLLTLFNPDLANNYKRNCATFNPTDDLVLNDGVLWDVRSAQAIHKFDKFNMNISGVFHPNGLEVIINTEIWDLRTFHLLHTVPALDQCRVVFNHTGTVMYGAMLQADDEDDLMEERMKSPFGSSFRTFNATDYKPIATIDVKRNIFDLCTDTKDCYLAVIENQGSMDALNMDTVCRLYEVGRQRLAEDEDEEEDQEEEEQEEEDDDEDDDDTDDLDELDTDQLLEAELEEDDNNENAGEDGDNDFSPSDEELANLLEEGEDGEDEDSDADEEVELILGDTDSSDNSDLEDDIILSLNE
It gave 13700 a.u. for “SYPRO Orange fluorescence” (WDR5; 31.4 °C).
The “SYPRO Orange fluorescence” was 28900 a.u. (DCAF1; 55.61 °C).
It gave 48400 a.u. for “SYPRO Orange fluorescence” (WDR5; 94.81 °C).
The “SYPRO Orange fluorescence” was 47200 a.u. (DCAF1; 60.01 °C).
The “SYPRO Orange fluorescence” was 14700 a.u. (WDR5; 45.6 °C).
It gave 53300 a.u. for “SYPRO Orange fluorescence” (DCAF1; 65.41 °C).
For DCAF1; 86.81 °C: “SYPRO Orange fluorescence” read 34400 a.u.

Mixed results
E3 ubiquitin-protein ligase NEDD4: E3 ubiquitin-protein ligase NEDD4 (Homo sapiens, UniProt P46934)
UniProt P46934, sequence (whole entry, looked up): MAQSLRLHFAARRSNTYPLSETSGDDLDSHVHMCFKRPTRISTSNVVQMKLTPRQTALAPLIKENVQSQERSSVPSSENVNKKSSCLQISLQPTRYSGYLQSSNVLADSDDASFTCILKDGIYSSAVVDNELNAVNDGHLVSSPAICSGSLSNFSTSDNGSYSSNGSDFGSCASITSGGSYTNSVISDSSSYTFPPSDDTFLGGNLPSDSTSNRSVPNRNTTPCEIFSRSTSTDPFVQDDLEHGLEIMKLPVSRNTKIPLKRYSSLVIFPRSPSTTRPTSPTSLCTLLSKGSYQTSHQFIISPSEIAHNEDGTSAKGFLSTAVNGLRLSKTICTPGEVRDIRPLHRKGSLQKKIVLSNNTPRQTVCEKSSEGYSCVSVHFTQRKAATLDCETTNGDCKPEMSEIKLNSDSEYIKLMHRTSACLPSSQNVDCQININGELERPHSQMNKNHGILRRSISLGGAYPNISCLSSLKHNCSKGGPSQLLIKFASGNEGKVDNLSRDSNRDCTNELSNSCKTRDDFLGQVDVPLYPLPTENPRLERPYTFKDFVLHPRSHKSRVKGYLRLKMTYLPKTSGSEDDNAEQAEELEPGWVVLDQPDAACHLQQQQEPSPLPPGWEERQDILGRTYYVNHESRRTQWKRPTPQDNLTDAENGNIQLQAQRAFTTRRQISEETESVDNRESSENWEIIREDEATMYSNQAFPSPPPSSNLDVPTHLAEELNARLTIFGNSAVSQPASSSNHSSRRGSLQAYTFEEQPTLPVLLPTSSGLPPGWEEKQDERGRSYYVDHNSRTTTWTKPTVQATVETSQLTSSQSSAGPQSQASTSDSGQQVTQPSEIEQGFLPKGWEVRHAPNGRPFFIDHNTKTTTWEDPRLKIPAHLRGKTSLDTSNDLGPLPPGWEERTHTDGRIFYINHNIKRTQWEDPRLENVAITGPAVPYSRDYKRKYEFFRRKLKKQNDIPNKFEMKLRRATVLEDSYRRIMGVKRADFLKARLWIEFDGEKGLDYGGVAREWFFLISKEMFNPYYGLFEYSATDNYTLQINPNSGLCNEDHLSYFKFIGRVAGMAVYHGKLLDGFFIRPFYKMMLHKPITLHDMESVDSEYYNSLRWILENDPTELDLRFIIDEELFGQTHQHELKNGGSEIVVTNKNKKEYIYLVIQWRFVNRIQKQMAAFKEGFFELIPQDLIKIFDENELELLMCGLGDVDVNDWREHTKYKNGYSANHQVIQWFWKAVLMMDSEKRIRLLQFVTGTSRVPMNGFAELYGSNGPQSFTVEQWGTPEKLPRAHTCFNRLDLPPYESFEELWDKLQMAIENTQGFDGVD
With `CN(C)C/C=C/C(=O)NCCCN1c2ccccc2CCc2ccc(Cl)cc21` the inhibition was 26.7% (E3 ubiquitin-protein ligase NEDD4; enzyme activity, inhibitor, TR-FRET; 33 µM).
`Cc1ccc(O)c(C)c1-c1cnc2[nH]c(-c3cnc(N4CCC(CN5CCN(c6ccc7c(c6F)CN(C6CCC(=O)NC6=O)C7=O)CC5)CC4)nc3)cc2c1C#N` (stereo not shown) has a bioavailability of 25.1% (female CD-1 mouse, plasma; oral, 60 mg/kg).
The phospho-ERK1/2 level of `Cc1ncsc1-c1ccc(C2(NC(=O)C3CC(O)CN3C(=O)C(NC(=O)c3ccc(COc4c(-c5c(C)c(F)cc6[nH]ncc56)c(C5CC5)cc5c(N6CC7CC6CN7)nc(OC6CCOCC6)nc45)cc3)C(C)(C)C)CC2)cc1` (stereo not shown) is reported as 21.6% and 54.2% and 37.2% and 52.6% and 23.4% and 22.2% (AsPC-1; in-cell ELISA; 1 µM, individual replicates).
`Cc1ccc(O)c(C)c1-c1cnc2[nH]c(-c3cnc(N4CCC5(CC4)CC(N4CCN(c6ccc(N[C@H]7CCC(=O)NC7=O)cc6F)CC4)CO5)nc3)cc2c1C#N` (single isomer, unassigned) gave a binding remaining of 83% (ABL1 phosphorylated human; KINOMEscan; 1000 nM; relative to: control).
For `CCOC(=O)/C=C/CNCCCCN1c2cc(Cl)ccc2CCc2cnn(C)c21.O=C(O)/C=C\C(=O)O`, the intrinsic clearance was 227 ± 8.4 µL/min/mg protein (mouse liver microsomes; 1 µM).
`Cc1ncc(-c2cc3c(C(N)=O)c(-c4c(C)ccc(O)c4C)cnc3[nH]2)cn1` gave an inhibition of 12.9% and 12.3% (Membrane-associated tyrosine- and threonine-specific cdc2-inhibitory kinase (PKMYT1, Homo sapiens, UniProt Q99640); binding, HTRF; 41.15 nM).
For `COC(=O)CCCNCCCN1c2ccccc2CCc2ccc(Cl)cc21.COC(=O)CCCNCCCN1c2ccccc2CCc2ccc(Cl)cc21.O=C(O)/C=C/C(=O)O`, the inhibition was 15.3% (E3 ubiquitin-protein ligase NEDD4; enzyme activity, inhibitor, TR-FRET; 11 µM).
`Cc1ccc(O)c(C)c1-c1cnc2[nH]c(-c3cnc(N4CCC(CN5CCN(c6ccc(NC7CCC(=O)NC7=O)cc6F)CC5)CC4)nc3)cc2c1C#N` (stereo not shown) has a half-life of 270 min (Sprague-Dawley rat, male, plasma; oral, 10 mg/kg).
For `CCONC(=O)/C=C/CNCCCCN1c2cc(Cl)ccc2CCc2cnn(C)c21.O=C(O)/C=C\C(=O)O`, the intrinsic clearance was 43 ± 9.9 µL/min/mg protein (human liver microsomes; 1 µM).

Excerpt of the above (series 1):
It gave 48400 a.u. for “SYPRO Orange fluorescence” (WDR5; 94.81 °C).
The “SYPRO Orange fluorescence” was 47200 a.u. (DCAF1; 60.01 °C).
